Experimental data gathered from unrelated publications.
Numbered parts are unrelated; each lists some results of a single study.

Block 1
Target: Sal-like protein 4, full length isoform A (SALL4, Homo sapiens, UniProt Q9UJQ4, residues 1-1053)
Chain of UniProt Q9UJQ4 (whole entry, looked up): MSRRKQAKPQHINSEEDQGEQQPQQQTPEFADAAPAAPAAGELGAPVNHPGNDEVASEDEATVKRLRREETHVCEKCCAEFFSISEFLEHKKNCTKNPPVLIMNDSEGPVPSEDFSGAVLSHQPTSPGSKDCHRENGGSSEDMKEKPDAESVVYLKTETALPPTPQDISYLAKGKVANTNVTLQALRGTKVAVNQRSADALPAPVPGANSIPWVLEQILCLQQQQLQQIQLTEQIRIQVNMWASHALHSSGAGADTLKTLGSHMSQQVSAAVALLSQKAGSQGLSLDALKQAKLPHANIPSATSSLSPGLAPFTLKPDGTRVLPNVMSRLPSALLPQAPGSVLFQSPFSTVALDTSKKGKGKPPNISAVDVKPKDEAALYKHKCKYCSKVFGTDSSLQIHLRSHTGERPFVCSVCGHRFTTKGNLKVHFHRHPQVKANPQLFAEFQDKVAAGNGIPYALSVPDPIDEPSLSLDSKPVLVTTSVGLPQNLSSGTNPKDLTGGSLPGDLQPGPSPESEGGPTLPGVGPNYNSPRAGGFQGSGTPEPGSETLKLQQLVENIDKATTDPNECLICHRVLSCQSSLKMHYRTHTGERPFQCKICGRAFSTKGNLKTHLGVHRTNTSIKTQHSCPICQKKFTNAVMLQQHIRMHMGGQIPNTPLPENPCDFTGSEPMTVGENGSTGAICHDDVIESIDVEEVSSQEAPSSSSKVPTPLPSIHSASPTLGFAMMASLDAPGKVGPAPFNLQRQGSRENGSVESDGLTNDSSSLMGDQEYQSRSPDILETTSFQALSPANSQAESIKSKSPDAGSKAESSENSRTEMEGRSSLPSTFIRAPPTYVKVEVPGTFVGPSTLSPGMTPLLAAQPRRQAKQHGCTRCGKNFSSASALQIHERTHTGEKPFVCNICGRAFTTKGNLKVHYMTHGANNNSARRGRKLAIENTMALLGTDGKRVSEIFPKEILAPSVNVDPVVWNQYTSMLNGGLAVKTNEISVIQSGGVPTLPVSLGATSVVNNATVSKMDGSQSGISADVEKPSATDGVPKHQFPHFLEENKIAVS
Method: universal PBM
Molecule type: double-stranded DNA, one strand shown
Medium: in vitro
Concentration: 600 nM
Setting: 8-mer, flanks averaged, mean of replicates
Reading: higher = stronger binding
Measurement: E-score
ACAACATG: 0.142
AGGGAACT: -0.269
CATTTGGC: 0.00981

Block 2
Target: RNA binding protein fox-1 homolog 2, RRM domain, GST-SBP tag (RBFOX2, Homo sapiens, UniProt O43251-10, residues 100-194)
Method: RNA Bind-n-Seq
Molecule type: RNA
Medium: in vitro
Concentration: 365 nM
Setting: natural RNA segment, single round, ends assumed
Baseline: no-protein control
Reading: higher = stronger binding
Measurement: RBNS enrichment (R)
Residues (chain): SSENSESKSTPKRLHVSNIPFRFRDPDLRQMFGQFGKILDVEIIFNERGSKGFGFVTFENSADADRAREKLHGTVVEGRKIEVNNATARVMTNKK
GGGAGUUCUACAGUCCGACGAUCCUGUCUUCCUCAUUGCACUGCAAUGGGCAGGGGUAGGAGAUUGGAGAUAAGGAUGAAGGGGGAGGAAAGGGUCCCUGGAGGCCUGUGCAUCUAUGCUCUGUUACAAGUGCUGGAAUUCUCGGGUGCCAA: 0.584
GGGAGUUCUACAGUCCGACGAUCCUACACAUGGUUGCUAUUUAUUUCUACAUGAAGCUUAUUCUCACUUGGAGGUUCUGAAGAUUCUGUUAUAGAGCAAGAAAUGGCUUAAUUUUUUUUUUUAAUUGGAAUUUUGGAAUUCUCGGGUGCCAA: 1.26
GGGAGUUCUACAGUCCGACGAUCUGAGAUAUCAGUGUGUUUAUUAAUAAGGAUUGCAAUAGUAUAGUGCUUAAUAUGUGCCAGGCAUAGUGCUAAGGGUUUACAUACGUUAUCCCUUUUAAUCCAGAAAACAGUGGAAUUCUCGGGUGCCAA: 0.355

Further values, each from its own experiment
IRF3 S386D/S396D/S398D/S402D/T404D/S405D full length, phosphomimetic: Interferon regulatory factor 3, full length, phosphomimetic (IRF3, Homo sapiens, UniProt Q14653, residues 1-427, S386D/S396D/S398D/S402D/T404D/S405D)
Chain of UniProt Q14653 (whole entry, unmodified, looked up): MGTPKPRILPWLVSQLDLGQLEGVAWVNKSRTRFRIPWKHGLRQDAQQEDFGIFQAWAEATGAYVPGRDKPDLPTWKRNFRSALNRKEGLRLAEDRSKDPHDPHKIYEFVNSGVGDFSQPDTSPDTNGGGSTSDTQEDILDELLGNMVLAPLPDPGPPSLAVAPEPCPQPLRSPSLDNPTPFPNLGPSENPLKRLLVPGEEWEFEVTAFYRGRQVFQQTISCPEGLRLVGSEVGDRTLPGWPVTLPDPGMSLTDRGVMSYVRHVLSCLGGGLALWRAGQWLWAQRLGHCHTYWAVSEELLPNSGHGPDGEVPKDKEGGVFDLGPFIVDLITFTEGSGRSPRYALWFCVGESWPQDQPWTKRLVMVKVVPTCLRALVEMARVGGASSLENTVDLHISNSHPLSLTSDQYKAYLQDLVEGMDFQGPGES
GCCTAGCACTACGGTTTCGACACTGGGGACGTGCTAGTCTTGATTCGCTTGACGCTGCTG  fitted relative affinity (IRF3 S386D/S396D/S398D/S402D/T404D/S405D full length, phosphomimetic; protein-binding microarray; double-stranded DNA, one strand shown, in vitro; 2540 nM top, 60-bp whole probe, together with: salmon DNA 0.4 mg/ml; baseline: random background probes, higher = stronger binding): 2.8 z-score
PhoQ, residues 284 288 289 292 302 303 QWQEDG  fold induction (PhoP, residues 12 14 15 18 19 AQALL (Escherichia coli, UniProt P23836); Sort-seq, item: YFP reporter; E. coli; PhoQ-PhoP variant library, together with: 10 µM Mg2+; baseline: high Mg2+ state, higher = stronger signaling): 0.832
GCCTAGCACTTAGGTATCGGTGTCGGTTAGTGCTAGGTCTTGATTCGCTTGACGCTGCTG  fitted relative affinity (IRF3 S386D/S396D/S398D/S402D/T404D/S405D full length, phosphomimetic; protein-binding microarray; double-stranded DNA, one strand shown, in vitro; 2540 nM top, 60-bp whole probe, together with: salmon DNA 0.4 mg/ml; baseline: random background probes, higher = stronger binding): 2.91 z-score
GCCTAGCACTTAGGTATCCTTTTCCTTTCGTGCTAGGTCTTGATTCGCTTGACGCTGCTG  fitted relative affinity (IRF3 S386D/S396D/S398D/S402D/T404D/S405D full length, phosphomimetic; protein-binding microarray; double-stranded DNA, one strand shown, in vitro; 2540 nM top, 60-bp whole probe, together with: salmon DNA 0.4 mg/ml; baseline: random background probes, higher = stronger binding): 8.38 z-score

A few entries again (block 2):
GGGAGUUCUACAGUCCGACGAUCCUACACAUGGUUGCUAUUUAUUUCUACAUGAAGCUUAUUCUCACUUGGAGGUUCUGAAGAUUCUGUUAUAGAGCAAGAAAUGGCUUAAUUUUUUUUUUUAAUUGGAAUUUUGGAAUUCUCGGGUGCCAA: 1.26
